Results gathered from unrelated publications.
Protocols differ between the studies behind these lines. Values joined by “and” are separate records of one study, mostly repeats; a detail may differ. Numbers after ± are the reported error.
Grm2: Metabotropic glutamate receptor 2 (Grm2, Rattus norvegicus, UniProt P31421)
MAPK8: Mitogen-activated protein kinase 8 (MAPK8, Homo sapiens, UniProt P45983)
Lysophospholipase-like protein 1: Lysophospholipase-like protein 1 (Mus musculus, UniProt Q3UFF7)
GRM4: Metabotropic glutamate receptor 4 (GRM4, Homo sapiens, UniProt Q14833)
RPA1 N-terminal domain: Replication protein A 70 kDa DNA-binding subunit, N-terminal domain (RPA1, Homo sapiens, UniProt P27694)
APP Aβ1-40: Amyloid-beta precursor protein, Aβ1-40 (APP, Homo sapiens, UniProt P05067)
FAAH: Fatty-acid amide hydrolase 1 (FAAH, Homo sapiens, UniProt O00519)

Sequences of proteins named here, by UniProt entry; tags and fusion partners are left off. Residues count along the entry.
UniProt P45983, 1-384 isoform 3: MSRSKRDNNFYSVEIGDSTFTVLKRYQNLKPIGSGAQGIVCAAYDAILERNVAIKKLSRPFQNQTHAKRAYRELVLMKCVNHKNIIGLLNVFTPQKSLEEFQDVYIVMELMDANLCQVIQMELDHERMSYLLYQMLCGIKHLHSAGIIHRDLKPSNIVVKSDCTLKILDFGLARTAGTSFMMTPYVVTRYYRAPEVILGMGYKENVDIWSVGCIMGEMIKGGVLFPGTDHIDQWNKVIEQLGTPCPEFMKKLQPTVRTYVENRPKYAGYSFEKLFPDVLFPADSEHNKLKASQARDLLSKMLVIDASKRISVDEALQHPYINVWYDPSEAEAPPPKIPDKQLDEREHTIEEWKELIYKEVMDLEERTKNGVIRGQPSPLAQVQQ
UniProt O00519, whole entry: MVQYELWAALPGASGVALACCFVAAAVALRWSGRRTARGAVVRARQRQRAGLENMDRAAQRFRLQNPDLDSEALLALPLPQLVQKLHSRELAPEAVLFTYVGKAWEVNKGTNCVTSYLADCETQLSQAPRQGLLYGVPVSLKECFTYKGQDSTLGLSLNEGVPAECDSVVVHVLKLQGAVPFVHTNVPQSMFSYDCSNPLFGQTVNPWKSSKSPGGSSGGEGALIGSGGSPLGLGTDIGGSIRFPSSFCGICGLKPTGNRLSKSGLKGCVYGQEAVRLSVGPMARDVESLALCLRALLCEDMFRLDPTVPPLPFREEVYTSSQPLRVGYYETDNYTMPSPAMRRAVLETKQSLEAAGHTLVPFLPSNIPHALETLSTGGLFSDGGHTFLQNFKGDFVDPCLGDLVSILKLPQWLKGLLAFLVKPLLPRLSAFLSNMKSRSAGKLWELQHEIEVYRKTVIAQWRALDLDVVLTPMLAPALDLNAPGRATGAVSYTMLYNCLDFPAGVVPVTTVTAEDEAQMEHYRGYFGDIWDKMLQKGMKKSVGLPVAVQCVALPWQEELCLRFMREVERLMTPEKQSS
UniProt Q5VWZ2, whole entry: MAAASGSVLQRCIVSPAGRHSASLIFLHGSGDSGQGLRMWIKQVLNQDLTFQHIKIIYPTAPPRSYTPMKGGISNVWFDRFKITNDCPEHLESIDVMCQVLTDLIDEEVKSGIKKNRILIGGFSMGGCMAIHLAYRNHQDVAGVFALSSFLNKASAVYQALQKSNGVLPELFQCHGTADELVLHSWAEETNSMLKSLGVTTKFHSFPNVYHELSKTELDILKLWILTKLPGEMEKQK
UniProt P11473, whole entry: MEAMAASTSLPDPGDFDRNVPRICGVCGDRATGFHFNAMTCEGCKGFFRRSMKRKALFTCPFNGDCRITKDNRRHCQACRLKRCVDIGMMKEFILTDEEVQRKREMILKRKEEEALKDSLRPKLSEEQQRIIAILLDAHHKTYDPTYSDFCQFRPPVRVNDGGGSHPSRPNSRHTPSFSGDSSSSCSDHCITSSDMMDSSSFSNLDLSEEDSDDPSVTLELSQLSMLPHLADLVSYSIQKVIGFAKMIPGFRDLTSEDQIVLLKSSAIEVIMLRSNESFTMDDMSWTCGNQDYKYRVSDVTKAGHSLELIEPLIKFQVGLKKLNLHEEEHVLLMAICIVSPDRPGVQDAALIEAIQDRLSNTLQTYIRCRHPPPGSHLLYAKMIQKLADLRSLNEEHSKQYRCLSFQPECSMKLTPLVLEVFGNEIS
UniProt P30291, whole entry: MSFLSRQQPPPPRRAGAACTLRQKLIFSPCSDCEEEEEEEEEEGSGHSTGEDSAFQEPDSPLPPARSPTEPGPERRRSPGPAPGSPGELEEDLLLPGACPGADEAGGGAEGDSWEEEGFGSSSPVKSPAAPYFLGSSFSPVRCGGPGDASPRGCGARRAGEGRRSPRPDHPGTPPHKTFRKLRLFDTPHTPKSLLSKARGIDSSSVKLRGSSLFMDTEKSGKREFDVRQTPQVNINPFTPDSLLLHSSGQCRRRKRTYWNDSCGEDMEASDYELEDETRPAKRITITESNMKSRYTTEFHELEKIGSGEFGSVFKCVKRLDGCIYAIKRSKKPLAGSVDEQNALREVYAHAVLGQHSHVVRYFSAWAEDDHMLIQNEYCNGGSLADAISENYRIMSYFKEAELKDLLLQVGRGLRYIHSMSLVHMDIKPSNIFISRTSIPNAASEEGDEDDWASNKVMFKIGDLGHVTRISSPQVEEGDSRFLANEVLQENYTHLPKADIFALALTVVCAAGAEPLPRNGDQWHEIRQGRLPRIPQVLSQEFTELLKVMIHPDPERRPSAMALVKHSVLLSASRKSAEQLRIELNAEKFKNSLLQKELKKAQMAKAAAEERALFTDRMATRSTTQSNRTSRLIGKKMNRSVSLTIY
UniProt P42260, 32-908 limits assumed: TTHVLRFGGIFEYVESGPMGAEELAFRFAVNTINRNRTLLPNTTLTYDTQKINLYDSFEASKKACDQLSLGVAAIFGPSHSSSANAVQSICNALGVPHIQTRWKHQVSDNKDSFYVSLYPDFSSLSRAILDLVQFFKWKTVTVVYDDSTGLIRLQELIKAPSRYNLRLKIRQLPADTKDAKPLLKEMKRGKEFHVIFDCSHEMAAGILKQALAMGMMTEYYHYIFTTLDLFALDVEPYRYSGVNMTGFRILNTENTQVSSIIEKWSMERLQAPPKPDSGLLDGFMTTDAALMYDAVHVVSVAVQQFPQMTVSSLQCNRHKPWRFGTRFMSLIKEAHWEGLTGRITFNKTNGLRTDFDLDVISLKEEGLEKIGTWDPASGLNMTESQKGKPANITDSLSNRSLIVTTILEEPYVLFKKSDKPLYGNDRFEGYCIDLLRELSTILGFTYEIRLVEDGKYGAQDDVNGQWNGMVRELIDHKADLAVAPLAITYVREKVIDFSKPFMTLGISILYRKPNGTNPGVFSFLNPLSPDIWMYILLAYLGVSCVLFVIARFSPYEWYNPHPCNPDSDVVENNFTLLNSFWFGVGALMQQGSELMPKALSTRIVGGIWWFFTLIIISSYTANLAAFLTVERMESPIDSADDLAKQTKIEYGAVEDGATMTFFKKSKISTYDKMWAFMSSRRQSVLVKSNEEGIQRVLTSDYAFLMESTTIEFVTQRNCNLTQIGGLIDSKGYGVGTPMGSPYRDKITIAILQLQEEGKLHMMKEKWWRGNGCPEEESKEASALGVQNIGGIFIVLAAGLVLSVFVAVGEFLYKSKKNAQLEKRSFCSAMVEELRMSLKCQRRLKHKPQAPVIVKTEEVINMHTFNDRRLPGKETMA
UniProt P46934, whole entry, looked up: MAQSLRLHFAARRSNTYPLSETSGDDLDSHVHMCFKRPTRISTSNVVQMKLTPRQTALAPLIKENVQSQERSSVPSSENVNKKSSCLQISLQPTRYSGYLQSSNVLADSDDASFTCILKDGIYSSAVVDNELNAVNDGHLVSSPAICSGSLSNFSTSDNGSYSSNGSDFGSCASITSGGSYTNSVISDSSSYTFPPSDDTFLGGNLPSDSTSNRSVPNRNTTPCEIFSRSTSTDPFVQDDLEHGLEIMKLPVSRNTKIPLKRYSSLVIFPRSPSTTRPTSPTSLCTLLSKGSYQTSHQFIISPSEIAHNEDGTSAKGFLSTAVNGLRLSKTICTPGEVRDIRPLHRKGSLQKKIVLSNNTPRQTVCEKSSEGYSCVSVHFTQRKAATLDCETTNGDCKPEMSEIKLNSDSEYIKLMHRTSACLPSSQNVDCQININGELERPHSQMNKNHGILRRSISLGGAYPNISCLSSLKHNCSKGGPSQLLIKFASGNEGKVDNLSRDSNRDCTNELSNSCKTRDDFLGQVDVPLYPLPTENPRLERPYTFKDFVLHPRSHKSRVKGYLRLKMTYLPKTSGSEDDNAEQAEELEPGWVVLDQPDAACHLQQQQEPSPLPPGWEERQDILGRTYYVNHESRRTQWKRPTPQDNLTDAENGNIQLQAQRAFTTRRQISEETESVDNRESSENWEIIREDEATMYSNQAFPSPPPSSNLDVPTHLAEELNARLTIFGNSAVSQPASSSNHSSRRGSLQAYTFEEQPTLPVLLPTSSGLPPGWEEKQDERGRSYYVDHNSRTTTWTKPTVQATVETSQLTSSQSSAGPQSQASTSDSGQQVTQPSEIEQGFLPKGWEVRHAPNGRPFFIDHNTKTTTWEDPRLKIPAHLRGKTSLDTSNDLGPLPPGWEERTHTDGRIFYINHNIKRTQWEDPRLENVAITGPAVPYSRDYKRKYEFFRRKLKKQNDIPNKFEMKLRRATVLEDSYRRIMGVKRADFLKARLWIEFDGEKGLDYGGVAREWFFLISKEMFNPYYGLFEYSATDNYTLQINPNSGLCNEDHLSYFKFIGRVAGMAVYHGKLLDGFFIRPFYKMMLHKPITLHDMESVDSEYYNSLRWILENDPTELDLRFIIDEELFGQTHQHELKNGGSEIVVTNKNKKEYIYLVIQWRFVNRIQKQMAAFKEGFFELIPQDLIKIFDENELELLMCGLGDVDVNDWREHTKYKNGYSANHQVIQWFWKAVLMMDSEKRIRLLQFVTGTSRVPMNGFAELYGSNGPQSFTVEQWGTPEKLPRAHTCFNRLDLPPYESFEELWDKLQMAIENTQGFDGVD
UniProt B2RXH2, whole entry: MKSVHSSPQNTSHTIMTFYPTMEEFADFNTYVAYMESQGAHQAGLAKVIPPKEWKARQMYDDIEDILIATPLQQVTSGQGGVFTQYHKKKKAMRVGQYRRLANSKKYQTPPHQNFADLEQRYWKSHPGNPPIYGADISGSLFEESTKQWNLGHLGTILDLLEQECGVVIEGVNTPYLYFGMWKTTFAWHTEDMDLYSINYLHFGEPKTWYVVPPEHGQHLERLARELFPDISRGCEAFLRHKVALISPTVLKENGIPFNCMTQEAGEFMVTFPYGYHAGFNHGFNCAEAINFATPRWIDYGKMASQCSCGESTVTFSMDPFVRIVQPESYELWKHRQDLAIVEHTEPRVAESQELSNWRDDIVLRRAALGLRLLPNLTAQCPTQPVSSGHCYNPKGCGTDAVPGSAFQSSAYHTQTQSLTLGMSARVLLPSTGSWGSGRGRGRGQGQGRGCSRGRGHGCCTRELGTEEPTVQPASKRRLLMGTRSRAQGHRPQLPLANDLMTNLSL
UniProt Q99797, 36-713 limits assumed: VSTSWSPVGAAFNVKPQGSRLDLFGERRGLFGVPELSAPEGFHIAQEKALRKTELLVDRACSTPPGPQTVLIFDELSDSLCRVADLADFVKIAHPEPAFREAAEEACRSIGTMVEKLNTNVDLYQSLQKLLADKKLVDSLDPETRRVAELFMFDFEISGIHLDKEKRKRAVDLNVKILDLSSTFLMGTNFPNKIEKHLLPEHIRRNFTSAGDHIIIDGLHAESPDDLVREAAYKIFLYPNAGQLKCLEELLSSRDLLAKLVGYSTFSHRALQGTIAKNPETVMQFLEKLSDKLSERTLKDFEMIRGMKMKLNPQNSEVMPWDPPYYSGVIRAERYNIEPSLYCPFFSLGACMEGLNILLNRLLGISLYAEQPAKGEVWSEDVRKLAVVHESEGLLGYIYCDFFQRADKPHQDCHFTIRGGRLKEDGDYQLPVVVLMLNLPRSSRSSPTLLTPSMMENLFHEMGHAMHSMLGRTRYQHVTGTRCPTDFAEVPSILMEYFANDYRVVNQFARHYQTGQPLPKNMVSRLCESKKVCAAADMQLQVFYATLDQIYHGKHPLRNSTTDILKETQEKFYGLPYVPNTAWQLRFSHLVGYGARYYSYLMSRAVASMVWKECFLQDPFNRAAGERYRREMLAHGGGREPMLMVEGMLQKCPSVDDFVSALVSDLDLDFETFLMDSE
UniProt Q9BY41, whole entry: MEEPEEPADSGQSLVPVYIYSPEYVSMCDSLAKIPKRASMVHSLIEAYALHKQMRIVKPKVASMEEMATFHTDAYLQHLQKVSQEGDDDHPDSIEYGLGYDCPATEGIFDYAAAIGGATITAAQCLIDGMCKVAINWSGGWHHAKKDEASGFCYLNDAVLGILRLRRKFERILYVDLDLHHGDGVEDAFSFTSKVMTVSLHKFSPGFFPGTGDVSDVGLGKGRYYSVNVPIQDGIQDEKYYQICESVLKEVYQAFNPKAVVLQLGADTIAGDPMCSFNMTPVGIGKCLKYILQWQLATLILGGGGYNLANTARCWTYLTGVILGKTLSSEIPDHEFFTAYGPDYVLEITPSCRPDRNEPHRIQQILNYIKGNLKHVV
UniProt O89017, 18-435 limits assumed: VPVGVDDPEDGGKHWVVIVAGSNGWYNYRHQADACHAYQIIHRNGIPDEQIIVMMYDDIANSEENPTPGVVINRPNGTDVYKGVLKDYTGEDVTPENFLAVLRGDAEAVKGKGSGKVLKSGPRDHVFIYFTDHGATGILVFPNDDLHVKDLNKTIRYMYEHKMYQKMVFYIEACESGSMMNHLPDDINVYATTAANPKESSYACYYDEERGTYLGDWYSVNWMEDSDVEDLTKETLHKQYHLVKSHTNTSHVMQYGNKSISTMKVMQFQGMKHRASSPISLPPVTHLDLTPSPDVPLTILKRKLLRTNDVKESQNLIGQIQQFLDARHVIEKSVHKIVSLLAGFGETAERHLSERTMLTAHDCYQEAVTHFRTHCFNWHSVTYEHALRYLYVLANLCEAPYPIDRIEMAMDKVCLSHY

SMILES	target	test	system	conditions	scale	measurement	result
CCOC(=O)/C=C/CNCCCCN1c2ccccc2CCc2ccc(Cl)cc21	E3 ubiquitin-protein ligase NEDD4-like (NEDD4L, Homo sapiens, UniProt Q96PU5)	inhibitor, Ub-TR-FRET		33.33 µM, 1 h preincubation, DMSO up to 2%, added: ATP 2 mM	higher = more ubiquitination	ubiquitination TR-FRET signal AUC	609000 a.u.
NC(=O)c1cn(-c2ccc(F)cc2)c2ccc(CN3CCCSCC3)cc2c1=O	Grm2	calcium mobilization, negative allosteric modulator		30 µM, added: glutamate 100 µM	reference: glutamate maximum	response	2.19 ± 0.24%
COC(=O)[C@@]1(C)C=C(C(=O)Nc2cccc(C(=O)NC34CC(Nc5nccc(-c6cccnc6)n5)(C3)C4)c2)C(=O)CC1	MAPK8	kinase activity, inhibitor		4.938 µM, unit not given, added: 10 mM GSH	reference: DMSO	remaining activity	0.0419
Cc1ccc(F)cc1S(=O)(=O)n1nc(SCc2ccccc2)nc1N	LYPLAL1 (Homo sapiens, UniProt Q5VWZ2)	activator, gel-based ABPP	purified protein		reference: DMSO	FP-rhodamine labelling	1.2 fold
Cc1cc(SCc2sc(-c3ccncc3)nc2C)ccc1OCC(=O)O	Vitamin D3 receptor (VDR, Homo sapiens, UniProt P11473)	reporter gene, antagonist	HEK-293T	up to 100 µM, CYP24A1 promoter luciferase, added: 1,25(OH)2D3 10 nM		IC50	inactive
Nc1nc(NCCc2ccc(Cl)cc2)nn1S(=O)(=O)c1cccc([N+](=O)[O-])c1	Lysophospholipase-like protein 1	activator, gel-based ABPP FP-rhodamine			reference: DMSO	probe labelling	2 fold
Cc1cc(NC(=O)c2cccc(NC(=O)C3=CC(C)(C)CCC3=O)c2)ccc1Nc1nccc(-c2cccnc2)n1	MAPK8	kinase activity, inhibitor		0.5487 µM, unit not given, added: 10 mM GSH	reference: DMSO	remaining activity	0.577
C/C=C/Cn1c(Cc2cc(OC)c(OC)c(OC)c2)nc2c(N)ncnc21	Heat shock protein HSP 90-alpha, N-terminal domain (HSP90AA1, Homo sapiens, UniProt P07900)	isothermal titration calorimetry		298 K, N-terminal domain		TΔS	-3.15 ± 0.23 kcal/mol
Cc1nc(-c2ccc(OCC(C)C)c(C#N)c2)sc1C(N)=O	Grm4 (Rattus norvegicus, UniProt P31423)	thallium flux	HEK293 GIRK		reference: glutamate max	efficacy	51.3 ± 4%
O=C1CCC(N2Cc3cc(-c4nc5ccccn5c4Nc4ccc5c(c4)OCCO5)ccc3C2=O)C(=O)N1 (centres unmarked)	WEE1/CRBN (Homo sapiens, UniProt P30291+Q96SW2)	TR-FRET			reference: background	ternary complex formation	~2 fold
O=C(O)c1cc(C(=O)N[C@@H](Cc2ccc(O)cc2)C(=O)O)cc([C@H]2CCN[C@@H]2C(=O)O)c1	Grik2 (Rattus norvegicus, UniProt P42260)	radioligand binding	Sf9 membranes	10 µM, homomeric receptor, added: [3H]kainate		specific binding	84 ± 9%
CCOC(=O)/C=C/CNCCN1c2ccccc2CCc2ccc(Cl)cc21	E3 ubiquitin-protein ligase NEDD4 (Homo sapiens, UniProt P46934)	inhibitor, Ub-TR-FRET		33.33 µM, 1 h preincubation, HECT domain, added: ATP 2 mM	higher = more ubiquitination	ubiquitination TR-FRET signal AUC	161000 a.u. and 164000 a.u. and 158000 a.u.
Cc1cc(NC(=O)c2cccc(NC(=O)C3=CC(C)(C)CC3=O)c2)ccc1Nc1nccc(-c2cccnc2)n1	MAPK8	kinase activity, inhibitor		0.06097 µM, unit not given, added: 10 mM GSH	reference: DMSO	remaining activity	0.78
Nc1ncnc2c1c(-c1ccc(C(=O)Nc3cc(C4CC4)ccn3)cc1)nn2[C@@H]1CCCN(C(=O)C2CC2)C1	Tyrosine-protein kinase BTK, non-phosphorylated (BTK, Homo sapiens, UniProt Q06187)	TR-FRET binding kinetics		37 °C, unphosphorylated protein		koff	0.00434 ± 0.00032 s⁻¹
CSc1ccccc1Nc1c(C(=O)O)ccnc1C(=O)O	KDM4E (Homo sapiens, UniProt B2RXH2)	inhibitor, FDH-coupled spectrophotometry, refers to: formaldehyde		200 µM		remaining activity	5%
COc1ccc(NC(=O)CN2CCCN(S(=O)(=O)c3cccnc3)CC2)c(OC)c1	GRM4	calcium mobilization, positive allosteric modulator	CHO cells with Gqi5	added: glutamate	reference: PHCCC maximal response	maximal response	25.6 ± 4.6%

SMILES	target	test	system	conditions	scale	measurement	result
CC[C@H](C)[C@H](NC(=O)c1ccccc1N)C(=O)N[C@@H](CCCCN)C(=O)N[C@@H](CCC(N)=O)C(=O)N[C@@H](CO)C(=O)N[C@@H](CO)C(=O)N[C@@H](CC(C)C)C(=O)N[C@@H](CC(C)C)C(=O)N[C@@H](CCCCNc1ccc([N+](=O)[O-])cc1[N+](=O)[O-])C(N)=O	Mitochondrial intermediate peptidase (MIPEP, Homo sapiens, UniProt Q99797)	substrate, FRET peptide hydrolysis				kcat/Km	50000 M⁻¹ s⁻¹
O=S(=O)(Cc1ccc(-c2nc(-c3cccnc3)no2)o1)c1ccc(Cl)cc1	Catenin beta-1, residues 141-305 (CTNNB1, Homo sapiens, UniProt P35222)	isothermal titration calorimetry		concentration not given, 25 °C		binding stoichiometry	0.93
Cc1cc(NC(=O)c2ccc(C)c(S(=O)(=O)Nc3ccc(Cl)c(Cl)c3)c2)c(C(=O)O)cc1C	RPA1 N-terminal domain	binding, fluorescence polarisation competition		added: FITC-ATRIP probe		ligand efficiency	0.18
C[C@H](Nc1nc(N[C@@H](C)C2CC2)nc(-c2cccc(C(F)(F)F)n2)n1)C1CC1	Isocitrate dehydrogenase [NADP] cytoplasmic, homodimer (IDH1, Homo sapiens, UniProt O75874, R132H)	enzyme activity, inhibitor, diaphorase/resazurin coupled				maximal inhibition	91%
Oc1cccc(/C=C/c2c[nH]c3ccc(F)cc23)c1	APP Aβ1-40	Aβ40 aggregation, thioflavin T fluorescence		25 µM		inhibition	31%
Cc1ccc(C(=O)Nc2ccccc2C(=O)O)cc1S(=O)(=O)Nc1cccc(-c2ccc(Cl)c(Cl)c2)c1	RPA1 N-terminal domain	binding, fluorescence polarisation competition		added: FITC-ATRIP probe		ligand efficiency	0.2
O=C(OC(C(F)(F)F)C(F)(F)F)N1CC[C@@H](OC(c2ccc(F)cc2)c2ccc(F)cc2)C1	FAAH	enzyme activity, inhibitor, fluorescence AAMCA substrate		1 µM		activity	inactive
O=C(Nc1ccc(F)cc1)C12CC1/C(=N\O)c1cc(Cl)ccc1O2 (centres unmarked)	GRM4	positive allosteric modulator, calcium mobilization	CHO expressing Gqi5	30 µM, added: glutamate concentration-response	reference: glutamate alone, leftward shift	fold shift of glutamate EC50	1.8 ± 0.2 fold
CC(=O)NCCCC[C@H](NC(=O)CNC(=O)[C@H](CCCNC(=N)N)NC(C)=O)C(=O)Nc1ccc2c(C)cc(=O)oc2c1	HDAC8 (Homo sapiens, UniProt Q9BY41)	deacetylation, substrate		25 °C, added: 150 nM enzyme		kcat	0.011 ± 0.003 s⁻¹
CCCCCCCCCCCCCC[C@@H](O)[C@@H](O)[C@H](CO[C@H]1O[C@H](CO)[C@H](O)[C@H](O)[C@H]1O)NC(=O)CCCCCCCCCCc1ccccc1	Cd1d1, dimeric Ig fusion (Mus musculus, UniProt P11609)	ligand, competitive microarray binding		concentration not given	reference: α-GalCer, higher = stronger binding	binding affinity	~1 orders of magnitude
Cc1ncc(OCc2ccc3c(c2)c(=O)c(C(N)=O)cn3-c2ccc(F)cc2)cn1	Grm2	calcium mobilization, negative allosteric modulator		30 µM, added: glutamate 100 µM	reference: glutamate maximum	response	1.71 ± 0.2%
Cc1cccc(C2NC(=O)c3c(Cl)cccc3N2)c1 (racemic)	Protein polybromo-1, BD2 (PBRM1, Homo sapiens, UniProt Q86U86, V269I)	ITC			reference: wild-type BD2 over V269I mutant	fold loss of affinity	5 fold
CCOC(=O)/C=C/C(=O)N(CC(N)=O)NC(=O)[C@@H]1CCCN1C(=O)[C@H](CC)NC(C)=O	Legumain (Mus musculus, UniProt O89017)	inhibitor		pH 5.8, added: Cbz-Ala-Ala-Asn-AMC 10 µM		kobs/[I]	36200 M⁻¹ s⁻¹
COc1ccc2[nH]cc(CCc3ccccc3)c2c1	APP Aβ1-40	Aβ40 aggregation, thioflavin T fluorescence		25 µM		inhibition	0%
Nc1nc(SCc2ccc(Cl)cc2)nn1S(=O)(=O)c1nc2ccccc2s1	Lysophospholipase-like protein 1	activator, gel-based ABPP FP-rhodamine			reference: DMSO	probe labelling	1.1 fold
O=C(OC(C(F)(F)F)C(F)(F)F)N1CCC(OC(c2ccc(F)cc2)c2ccc(F)cc2)CC1	FAAH	enzyme activity, inhibitor, fluorescence AAMCA substrate		1 µM		activity	inactive
